Published values of several laboratories.
Parts stem from different laboratories: compare values within a part only. “And” joins repeats or separate records; there may be more than shown.
Sequence of UniProt P28223 (whole entry, looked up): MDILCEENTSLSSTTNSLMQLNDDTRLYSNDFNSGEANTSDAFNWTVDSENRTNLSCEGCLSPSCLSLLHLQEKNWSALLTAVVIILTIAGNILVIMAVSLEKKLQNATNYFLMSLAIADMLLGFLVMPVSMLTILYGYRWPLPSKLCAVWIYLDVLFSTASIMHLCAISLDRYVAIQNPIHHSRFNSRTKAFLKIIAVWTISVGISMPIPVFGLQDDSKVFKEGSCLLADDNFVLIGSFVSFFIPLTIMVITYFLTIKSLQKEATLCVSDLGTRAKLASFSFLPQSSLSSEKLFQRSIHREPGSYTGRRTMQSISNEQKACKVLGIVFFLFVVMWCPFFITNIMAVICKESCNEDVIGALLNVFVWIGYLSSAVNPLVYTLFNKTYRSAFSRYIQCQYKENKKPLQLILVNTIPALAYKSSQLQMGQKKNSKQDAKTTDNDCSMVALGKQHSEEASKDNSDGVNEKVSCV
Sequence of UniProt P61075 (whole entry, looked up): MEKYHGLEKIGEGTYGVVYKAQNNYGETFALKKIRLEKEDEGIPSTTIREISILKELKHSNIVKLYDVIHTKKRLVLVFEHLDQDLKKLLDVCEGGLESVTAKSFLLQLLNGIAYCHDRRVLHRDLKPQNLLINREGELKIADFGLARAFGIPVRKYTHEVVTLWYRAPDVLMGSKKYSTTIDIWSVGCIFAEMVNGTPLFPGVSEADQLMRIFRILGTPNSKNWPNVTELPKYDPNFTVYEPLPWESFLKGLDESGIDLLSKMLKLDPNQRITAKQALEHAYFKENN
Sequence of UniProt P62344 (whole entry, looked up): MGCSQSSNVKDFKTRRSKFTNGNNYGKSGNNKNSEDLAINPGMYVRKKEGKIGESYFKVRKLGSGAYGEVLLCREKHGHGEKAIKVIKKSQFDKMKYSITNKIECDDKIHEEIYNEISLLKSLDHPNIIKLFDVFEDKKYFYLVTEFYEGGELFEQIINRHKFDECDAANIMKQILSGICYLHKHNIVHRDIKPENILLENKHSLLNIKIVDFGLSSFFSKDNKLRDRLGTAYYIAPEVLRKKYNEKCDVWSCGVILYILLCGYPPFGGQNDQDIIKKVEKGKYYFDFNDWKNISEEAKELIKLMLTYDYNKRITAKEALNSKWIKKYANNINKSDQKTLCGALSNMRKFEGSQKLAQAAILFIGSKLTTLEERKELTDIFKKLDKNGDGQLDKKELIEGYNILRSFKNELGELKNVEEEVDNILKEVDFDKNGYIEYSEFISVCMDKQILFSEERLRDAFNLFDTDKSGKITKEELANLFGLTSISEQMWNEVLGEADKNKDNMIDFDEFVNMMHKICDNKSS

Set 1 — action: inhibitor; tested at: concentration not given; with: with ssDNA
Target: DNA polymerase theta, helicase domain (POLQ, Homo sapiens, UniProt O75417)
Sequence of UniProt O75417 (whole entry, looked up): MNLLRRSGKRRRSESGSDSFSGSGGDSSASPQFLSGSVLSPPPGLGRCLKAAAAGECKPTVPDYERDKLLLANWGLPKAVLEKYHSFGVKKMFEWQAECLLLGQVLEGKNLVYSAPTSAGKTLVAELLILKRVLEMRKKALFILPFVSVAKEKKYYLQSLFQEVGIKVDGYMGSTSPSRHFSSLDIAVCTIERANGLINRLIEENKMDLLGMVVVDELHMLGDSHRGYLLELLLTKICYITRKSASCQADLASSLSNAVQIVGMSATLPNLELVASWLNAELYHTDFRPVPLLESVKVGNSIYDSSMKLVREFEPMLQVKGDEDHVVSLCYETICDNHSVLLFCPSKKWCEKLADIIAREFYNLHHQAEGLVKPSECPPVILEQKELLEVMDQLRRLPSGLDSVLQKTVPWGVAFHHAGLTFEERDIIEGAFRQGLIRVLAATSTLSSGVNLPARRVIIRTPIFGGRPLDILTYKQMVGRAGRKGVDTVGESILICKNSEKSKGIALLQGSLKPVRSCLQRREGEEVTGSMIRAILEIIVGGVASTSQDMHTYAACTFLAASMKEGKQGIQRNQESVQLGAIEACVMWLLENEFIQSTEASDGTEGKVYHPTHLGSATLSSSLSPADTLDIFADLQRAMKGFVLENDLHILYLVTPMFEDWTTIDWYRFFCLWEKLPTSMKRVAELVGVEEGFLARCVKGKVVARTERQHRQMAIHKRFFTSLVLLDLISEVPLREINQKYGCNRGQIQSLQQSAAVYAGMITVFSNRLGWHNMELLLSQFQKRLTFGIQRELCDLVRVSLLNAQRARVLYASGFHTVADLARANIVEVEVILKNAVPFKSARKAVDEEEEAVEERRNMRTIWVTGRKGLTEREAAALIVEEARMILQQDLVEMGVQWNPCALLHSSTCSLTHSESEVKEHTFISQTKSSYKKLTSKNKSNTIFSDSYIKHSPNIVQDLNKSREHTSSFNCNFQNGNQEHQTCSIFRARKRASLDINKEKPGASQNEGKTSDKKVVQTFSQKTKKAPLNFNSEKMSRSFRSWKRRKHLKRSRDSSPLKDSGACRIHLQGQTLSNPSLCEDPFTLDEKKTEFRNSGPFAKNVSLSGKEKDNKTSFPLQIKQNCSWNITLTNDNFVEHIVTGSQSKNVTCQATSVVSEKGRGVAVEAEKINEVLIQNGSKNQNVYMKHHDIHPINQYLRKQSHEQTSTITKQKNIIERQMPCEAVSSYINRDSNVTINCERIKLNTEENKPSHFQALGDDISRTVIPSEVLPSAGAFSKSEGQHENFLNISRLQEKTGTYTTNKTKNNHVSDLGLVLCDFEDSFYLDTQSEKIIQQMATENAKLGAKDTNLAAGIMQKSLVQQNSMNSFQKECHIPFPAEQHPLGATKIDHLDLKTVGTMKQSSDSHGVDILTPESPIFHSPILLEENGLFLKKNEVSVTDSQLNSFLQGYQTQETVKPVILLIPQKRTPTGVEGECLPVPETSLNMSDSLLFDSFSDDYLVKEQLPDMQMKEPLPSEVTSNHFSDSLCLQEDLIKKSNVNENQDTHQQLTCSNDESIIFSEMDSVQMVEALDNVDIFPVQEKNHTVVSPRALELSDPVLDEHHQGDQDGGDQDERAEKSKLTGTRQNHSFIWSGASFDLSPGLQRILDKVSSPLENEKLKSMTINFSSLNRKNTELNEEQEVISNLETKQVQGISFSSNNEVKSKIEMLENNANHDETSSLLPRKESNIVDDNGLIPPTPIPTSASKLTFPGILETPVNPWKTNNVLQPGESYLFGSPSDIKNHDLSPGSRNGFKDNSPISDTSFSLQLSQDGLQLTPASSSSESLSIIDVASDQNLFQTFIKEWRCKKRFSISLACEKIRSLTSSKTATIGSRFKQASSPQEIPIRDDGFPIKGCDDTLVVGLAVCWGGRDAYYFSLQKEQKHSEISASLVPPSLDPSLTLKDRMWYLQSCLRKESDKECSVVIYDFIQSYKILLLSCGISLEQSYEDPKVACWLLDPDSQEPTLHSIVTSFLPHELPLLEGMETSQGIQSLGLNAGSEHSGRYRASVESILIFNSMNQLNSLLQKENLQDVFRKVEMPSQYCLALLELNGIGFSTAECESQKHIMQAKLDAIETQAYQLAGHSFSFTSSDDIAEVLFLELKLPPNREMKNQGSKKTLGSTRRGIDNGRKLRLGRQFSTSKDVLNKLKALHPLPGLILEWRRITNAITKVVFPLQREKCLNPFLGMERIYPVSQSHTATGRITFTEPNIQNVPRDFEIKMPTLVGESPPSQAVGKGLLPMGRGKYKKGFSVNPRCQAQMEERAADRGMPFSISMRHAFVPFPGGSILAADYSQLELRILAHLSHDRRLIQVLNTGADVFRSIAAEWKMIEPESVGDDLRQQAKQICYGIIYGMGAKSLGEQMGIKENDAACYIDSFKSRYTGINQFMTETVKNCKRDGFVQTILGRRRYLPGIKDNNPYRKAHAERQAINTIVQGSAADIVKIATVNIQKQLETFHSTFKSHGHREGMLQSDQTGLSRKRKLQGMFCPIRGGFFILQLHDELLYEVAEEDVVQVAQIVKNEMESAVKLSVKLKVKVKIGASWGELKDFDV
SMILES | remaining activity
CCN(CC)C(=O)c1ccc2c(c1)N(Cc1ccc(C(F)(F)F)cc1)C(=O)c1ccccc1S2 | 53.4% and 53.2%
CN(N=O)c1ccc(O)c(O)c1 | 39.8% and 36.3%
COc1cc(C(c2c(O)c3ccccc3oc2=O)c2c(C)n(C)n(-c3ccccc3)c2=O)ccc1OCC(=O)O (stereo not shown) | 36.4% and 36.7%
CSc1ccc(C(c2c(O)c3ccccc3oc2=O)c2c(C)n(C)n(-c3ccccc3)c2=O)cc1 (stereo not shown) | 71.1% and 70.2%

Set 2 — action: agonist
Target: Beta-1 adrenergic receptor (ADRB1, Homo sapiens, UniProt P08588)
Sequence of UniProt P08588 (whole entry, looked up): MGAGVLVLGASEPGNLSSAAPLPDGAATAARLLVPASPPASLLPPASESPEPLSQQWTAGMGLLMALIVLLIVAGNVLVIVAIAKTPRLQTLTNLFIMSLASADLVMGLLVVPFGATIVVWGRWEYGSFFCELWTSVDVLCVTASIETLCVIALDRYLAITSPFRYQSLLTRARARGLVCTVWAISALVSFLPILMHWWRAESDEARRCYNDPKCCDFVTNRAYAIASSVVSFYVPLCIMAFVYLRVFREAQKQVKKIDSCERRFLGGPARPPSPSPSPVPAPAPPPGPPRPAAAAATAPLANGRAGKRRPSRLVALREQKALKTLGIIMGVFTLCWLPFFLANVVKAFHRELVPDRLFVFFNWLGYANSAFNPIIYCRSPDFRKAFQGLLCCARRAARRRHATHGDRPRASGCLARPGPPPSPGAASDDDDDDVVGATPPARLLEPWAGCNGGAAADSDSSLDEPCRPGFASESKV
SMILES | Emax [%]
CC(C)NCC(O)c1ccccc1Cl (stereo not shown) | 96.7
CCCN(CCc1cccs1)C1CCc2c(O)cccc2C1 (stereo not shown) | 103
CC(CCc1ccc(O)cc1)NCC(O)c1ccc(O)cc1 (stereo not shown) | 44.1
CC(C)(C)NCC(O)c1cc(Br)c(N)c(Br)c1 (stereo not shown) | 99.8

Set 3 — method: Phase 2a trial; measured: influenza like illness; species: idiopathic pulmonary fibrosis patients
SMILES: CC(C)n1cnc(-c2ccc(F)cc2)c1-c1ncc(C(=O)Nc2ccc(N3CCN(C)CC3)cc2)[nH]1
setting | patients with adverse events [%]
dose not given, grade 4 maximum intensity, all arms | 0
60 mg once daily, grade 3 maximum intensity | 0
dose not given, grade 5 maximum intensity, all arms | 0
30 mg once daily, grade 3 maximum intensity | 0

Mixed results
Compound | target or system | test | setting | scale | endpoint | value
CC(C)(O)c1cncc(-c2nc3ccc(F)cc3n2C2CC2)c1 | HTR2A (Homo sapiens, UniProt P28223) | binding, radioligand binding | 10 µM | – | inhibition | -0.31%
CNC(=O)c1cc(C(=O)NC2CC2)cn(Cc2ccccc2)c1=O | normal-adjacent epithelium patient-derived organoids sample F | CellTiter-Glo | 1 µM | relative to: DMSO | viability | 70.7%
CS(=O)(=O)N1CCCC(NC(=O)[C@H](CCC2CCCCC2)NC(=O)c2ccc(CNC(=O)c3cnc4ccccn34)cc2)C1 (stereo partly shown) | CRK2 (Plasmodium falciparum, UniProt P61075) | cell-free assay, competition with immobilised ligand | 0.1 µM | – | remaining binding | 100%
COc1ccc2c(O[C@@H]3C[C@H]4C(=O)N[C@]5(C(=O)O)CC5/C=C\CCCCC[C@H](NC(=O)OC5CCCC5)C(=O)N4C3)cc(-c3csc(NC(=O)C(C)C)n3)nc2c1C (stereo partly shown) | CDPK1 (Plasmodium falciparum, UniProt P62344) | cell-free assay, competition with immobilised ligand | 1 µM | – | remaining binding | 100%
